Measured values collected from several papers.
Each line is one published result; not all experiments were run side by side. Several values in a cell are separate wells, animals, samples, runs or records.
Target: Tyrosine-protein kinase ABL2 (ABL2, Homo sapiens, UniProt P42684)
Chain of UniProt P42684 (whole entry, looked up): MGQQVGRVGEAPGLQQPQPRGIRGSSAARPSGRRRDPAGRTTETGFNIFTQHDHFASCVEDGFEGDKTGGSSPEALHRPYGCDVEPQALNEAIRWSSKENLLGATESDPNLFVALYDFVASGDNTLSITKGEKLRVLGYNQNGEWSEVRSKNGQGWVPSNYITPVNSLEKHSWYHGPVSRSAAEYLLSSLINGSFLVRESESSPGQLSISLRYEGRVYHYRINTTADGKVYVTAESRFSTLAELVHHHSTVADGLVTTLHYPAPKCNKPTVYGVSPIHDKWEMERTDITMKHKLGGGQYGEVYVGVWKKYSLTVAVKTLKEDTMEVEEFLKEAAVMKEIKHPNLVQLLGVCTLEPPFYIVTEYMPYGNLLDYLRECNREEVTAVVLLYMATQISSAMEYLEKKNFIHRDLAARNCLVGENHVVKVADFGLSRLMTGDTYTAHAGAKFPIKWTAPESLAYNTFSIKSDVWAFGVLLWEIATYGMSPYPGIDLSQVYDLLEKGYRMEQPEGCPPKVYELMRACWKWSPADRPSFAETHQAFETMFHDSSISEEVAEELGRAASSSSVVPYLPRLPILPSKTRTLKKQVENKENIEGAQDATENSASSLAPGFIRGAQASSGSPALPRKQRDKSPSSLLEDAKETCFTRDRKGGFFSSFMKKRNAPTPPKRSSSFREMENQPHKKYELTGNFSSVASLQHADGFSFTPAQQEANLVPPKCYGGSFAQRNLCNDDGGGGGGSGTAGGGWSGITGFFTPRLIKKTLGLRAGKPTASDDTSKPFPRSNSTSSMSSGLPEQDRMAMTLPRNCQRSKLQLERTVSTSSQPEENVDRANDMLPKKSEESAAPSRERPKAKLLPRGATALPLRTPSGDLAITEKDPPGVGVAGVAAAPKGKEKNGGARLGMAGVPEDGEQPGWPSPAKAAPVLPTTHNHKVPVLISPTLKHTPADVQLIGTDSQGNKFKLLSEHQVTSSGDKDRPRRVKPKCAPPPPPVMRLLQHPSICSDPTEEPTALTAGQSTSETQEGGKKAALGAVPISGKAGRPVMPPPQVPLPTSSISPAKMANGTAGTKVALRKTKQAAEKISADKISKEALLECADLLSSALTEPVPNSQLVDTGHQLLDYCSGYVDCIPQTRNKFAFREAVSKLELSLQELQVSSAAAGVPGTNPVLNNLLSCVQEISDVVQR

Structure (SMILES) | observed | action | technique | tested at | relative to | measurement | result
Cc1cnc2nc1Nc1cccc(c1)COC/C=C/COCc1cc(ccc1OCCN1CCOCC1)N2 | binding |  |  | 0.1 µM |  | remaining binding | 77%
CCN1CCN(Cc2ccc(NC(=O)c3ccc(C)c(NC(=O)c4cncc(-c5cccs5)c4)c3)cc2C(F)(F)F)CC1 | binding |  | competition with immobilised ligand | 1 µM |  | remaining binding | 0.1%
CNC(=O)C1CCN(c2cc(C)c(F)cc2NC(=O)c2ccc(-c3cc(O)ccc3C)c(C)c2)CC1 | binding |  | competition with immobilised ligand | 1 µM |  | remaining binding | 16%
COc1c(OCCCN2CCOCC2)ccc2c1N=C(NC(=O)c1cnc(N)nc1)N1CCN=C21 | kinase activity | inhibitor |  | 1 µM | untreated control | remaining activity | 85%
Cc1cccc(O[C@H]2CCC[C@@H](C(C)CNCc3ccncc3)C2)c1 (relative stereo) | enzyme activity | inhibitor |  | 1 µM |  | inhibition | -6%
C=CC(=O)Nc1cccc(-c2cnc3[nH]cc(C(=O)NC(C)(C)C)c3n2)c1 | enzyme activity | inhibitor |  | 0.1 µM |  | inhibition | 11%
C=CC(=O)N1CCCC(n2c(=O)c3ncccc3n(Cc3ccc(Oc4ccccc4)cc3)c2=O)C1 (stereo not shown) | cell-free assay |  | competition with immobilised ligand | 1 µM |  | remaining binding | 83%
Cc1ccc(-c2c(/C=C(\C#N)C(=O)NC(C)C)n(CCCO)c3ncnc(N)c23)cc1 | cell-free assay |  | competition with immobilised ligand | 1 µM |  | remaining binding | 81%
CNC(=O)C[C@H](Cc1ccc(C#N)cc1)NC(=O)c1cc(-c2ccc(CN[C@H](C)c3ccc(C)cc3)o2)ccc1Cl | enzyme activity | inhibitor |  | 1 µM |  | activity vs control | 86%
C[C@H]1CN(C(=O)c2cn(-c3ccnc(N)n3)c3cc(C#CC4(O)CCCCC4)ccc23)CCN1 | enzyme activity | inhibitor | FRET | 1 µM |  | inhibition | -1%
NC(=O)[C@@H](O)C[C@H]1CCc2sc3ncnc(O[C@H]4CC[C@H](N5CCOCC5)CC4)c3c21 | enzyme activity | inhibitor |  | 10 µM |  | inhibition | 21%
COc1cc(Nc2nccc(-c3cnn4nc(OC)ccc34)n2)cc(C(F)(F)F)c1 | binding |  | competition with immobilised ligand | 1 µM |  | remaining binding | 100%
CNC1C[S+]2CC[S+]3CC[S+](C1)[Ru-4]321([N]=C=S)[n]2c3ccc(OC)cc3c3c4c(c5cc(F)c[n+]1c5c32)C(=O)NC4=O (stereo not shown) |  |  | KinomeScan | 0.1 µM | untreated | remaining binding | 97%
Nc1ncc(-c2cc(-c3cnn(CC(F)(F)F)c3)ncc2F)nc1C(=O)NC1CNCC(F)C1 (stereo not shown) | enzyme activity |  |  | 1 µM | DMSO control | remaining activity | 96.2%
COCC12C(=O)NC3C4(C(OC)CC1O)C1CC5(O)C(OC)C(O)C(OC(C)=O)(C1C5OC(=O)c1ccccc1)C3(O)C(OC)C24 (stereo not shown) | kinase activity | inhibitor | ProQinase kinase profiling | 25 µM | control | remaining activity | 108% and 102%
O=c1c(-c2ccc(Cl)c(CN3CCOCC3)c2)coc2cc(O)ccc12 | enzyme activity | inhibitor |  | 1 µM |  | remaining activity | 96%

Some of these lines once more:
Structure (SMILES) | observed | action | technique | tested at | relative to | measurement | result
Cc1cnc2nc1Nc1cccc(c1)COC/C=C/COCc1cc(ccc1OCCN1CCOCC1)N2 | binding |  |  | 0.1 µM |  | remaining binding | 77%
